Results pooled from the literature.
Protocols differ between the studies behind these lines. Several values in a cell are separate wells, animals, samples, runs or records. ± gives the spread as reported.

Under “MyBP-C level change”, `C[n+]1cc2c3c(ccc2c2ccc4cc5c(cc4c21)OCO5)OCO3` is recorded as 14.7 SD (human iPSC cardiomyocytes; plate-normalised; concentration not given, hit retest; relative to: vehicle controls, SDs below control).
`OC[C@H]1O[C@@H](n2cnc3c(NCc4ccco4)ncnc32)[C@H](O)[C@@H]1O` has an EC50 of 4.98 µM (HEK293T ATF4-FLuc reporter; ATF4 reporter gene, activator, luciferase reporter).
The viability of `O=C(O)c1cc(O)c2c(c1)C(=O)c1cccc(O)c1C2=O` is reported as 61.5 ± 6.82% (HK-2 co-cultured with HepaRG; MTT; 16.67 µM, 48 h; relative to: untreated control).
`C[C@H]1[C@@H](O)O[C@@H]2O[C@@]3(C)CC[C@H]4[C@H](C)CC[C@@H]1[C@@]24OO3`: “LysoTracker Red positive cells” 13.6% (MOLM-13 cells; lysosomal disruption, flow cytometry; 5 µM, 24 h).
For `C[C@H](CS)C(=O)N1CCC[C@H]1C(=O)O`, the MDA content was 6.46 nmol/mL (HUVEC; 10 µM, with: angiotensin II).
With `CNCc1ccc(C)c(NC(=O)c2ccc(Nc3nc(-c4ccccc4)c4ccccc4n3)cc2)c1` the inhibition was 33.7% (THP-1; pyroptotic LDH release; 2 µM, 40 min, with: LPS then nigericin).
With `O=C(NO)c1cnc(N2C[C@@H]3[C@H](C2)[C@H]3NCc2ccc3cc(F)ccc3n2)nc1` the EC50 was 0.392 µM (HEK293T ATF4-FLuc reporter; ATF4 reporter gene, activator, luciferase reporter).
The cell growth of `CCOC(=O)CSc1nc(-c2ccc(Cl)cc2)c2c(NC(=O)c3ccccc3)nnc-2[nH]1` is reported as 119% (RXF 393; SRB; 10 µM, NCI60 single-dose screen; relative to: untreated).
`CCOc1cc2ncc(C#N)c(Nc3ccc(OCc4ccccn4)c(Cl)c3)c2cc1NC(=O)/C=C/[C@H]1CCCN1C` gave an EC50 of > 9.96 µM (HEK293T ATF4-FLuc reporter; ATF4 reporter gene, activator, luciferase reporter).
Under “point of departure”, `Cc1c(C)c2c(c(C)c1O)CCC(C)(COc1ccc(CC3SC(=O)NC3=O)cc1)O2` (centres unmarked) is recorded as 0.339 µM (HepG2; refers to: MTT reduction; 24 h, representative mode).
With `CC[C@H]1OC(=O)[C@H](C)C(=O)[C@H](C)[C@@H](O[C@@H]2O[C@H](C)C[C@H](N(C)C)[C@H]2O)[C@](C)(OC)C[C@@H](C)C(=O)[C@H](C)[C@H]2N(NCCCc3ccnc4ccccc34)C(=O)O[C@]12C` the EC50 was > 9.96 µM (HEK293T ATF4-FLuc reporter; ATF4 reporter gene, activator, luciferase reporter).
For `C=CC1=C(C)c2cc3[n-]c(cc4nc(cc5[n-]c(cc1n2)c(C)c5C=C)C(C)=C4CCC(=O)O)c(CCC(=O)O)c3C.[Zn+2]`, the fold change was 2.37 (SH-SY5Y; RNA-seq, refers to: IL4R mRNA; 5 µM, 5 h; relative to: untreated cells).
Under “S phase cells”, `CC(C)(c1ccc(O)cc1)c1ccc(O)cc1` is recorded as 9.77 ± 2.12% (HepG2 spheroids; Hoechst flow cytometry; 0.01 µM, 96 h).
With `Cc1cc(O)c2c(c1)C(=O)c1cc(O)cc(O)c1C2=O` the viability was 20.4 ± 8.16% (HK-2 co-cultured with HepaRG; MTT; 266.67 µM, 24 h; relative to: untreated control).
The selectivity ratio of `C=CC(=O)Nc1cc(Nc2nccc(Nc3cc(Cl)c(F)cc3C(C)(C)O)n2)c(OC)cc1N1CC[C@@H](N(C)C)C1` is reported as 0.8 (NCI-H2073 EGFR SVD knock-in; cell proliferation, CellTiter-Glo; relative to: knock-in over parental NCI-H2073).
`CC(C)(C)NC(=O)c1cncn1C1CCN(c2ccc(-c3nnc(C(F)(F)F)o3)cn2)CC1` has a mRNA level of 1.62 (HDMEC; qPCR, refers to: TSC22D2; concentration not given, unit not given; relative to: DMSO).
The inhibition of `OC[C@@H](O)[C@H](O)[C@@H](O)CO` is reported as -6.76% (THP-1; pyroptotic LDH release; 2 µM, 40 min, with: LPS then nigericin).
`CSc1cc(Oc2ccnc3[nH]c(=O)cnc23)ccc1NC(=O)Nc1cc(C(C)(C)C)nn1-c1ccccc1`: “phospho/total mTOR ratio” 0.92 (patient-derived cell clone B (sample A); reverse phase protein array, refers to: mTOR phosphosite 2448; human; 1 µM, 4 h; relative to: DMSO).
The IL-1β level of `O=C(O)CCc1ccc(O)c(O)c1` is reported as 8.3 ± 0.8 fold change (coculture, Caco-2, THP-1; ELISA; 200 ng/mL, 8 h, with: LPS, IFNγ, ATP; relative to: untreated control).
For `CCCCN1CCN(c2ccc3nc(-c4ccc5nc(-c6cc(OC)ccc6OC)[nH]c5c4)[nH]c3c2)CC1`, the growth percent was 82.6% (RXF 393; SRB; 10 µM, 48 h).
`Cc1cccc(-c2[nH]c(CNc3ccccc3F)nc2-c2ccc3ncnn3c2)n1` gave a viability of 71% (MM1.S; XTT; 1 µM; relative to: untreated).
`COc1ccc(NC(=S)N/N=C/c2cccc3cc4ccccc4nc23)cc1` — result for “G2/M phase cells”: 11.9 ± 1.3% (HeLa; PI flow cytometry; IC12.5, 48 h).
The IL-1β level of `CCCC(=O)[O-].[Na+]` is reported as 6 ± 11.8 fold change (coculture, Caco-2, THP-1; ELISA; 100 ng/mL, 8 h, with: LPS, IFNγ, ATP; relative to: untreated control).
`CCn1cc(-c2cc(Cn3ccoc3=N)cc3c2CCN([C@@H](C)c2cc(OC)ccn2)C3=O)c(C(F)(F)F)n1` gave an EC50 of 0.451 µM (Calu-1; cell growth, inhibitor; 120 h).
`COc1cc(-c2oc3cc(O)cc(O)c3c(=O)c2O)ccc1O` has an IL-1β level of 7.5 ± 1.8 fold change (coculture, Caco-2, THP-1; ELISA; 50 ng/mL, 8 h, with: LPS, IFNγ, ATP; relative to: untreated control).
With `Nc1ncnc2c1ncn2[C@@H]1O[C@H](COP(=O)(O)O)[C@@H](O)[C@H]1O` the inhibition was 5.18% (THP-1; pyroptotic LDH release; 2 µM, 40 min, with: LPS then nigericin).
For `CCCCc1nc(Cl)c(CO)n1Cc1ccc(-c2ccccc2-c2nn[nH]n2)cc1`, “log2 fold change” read 1.81 (human PBMC; RNA-seq, refers to: MN1 mRNA; 10 µg/mL, 24 h; relative to: untreated control).
The EC50 of `CCOc1cc2cc(CO)c(CO)c(-c3ccnc(-n4nc(-c5cccnc5)c5ccccc5c4=O)c3)c2cc1OCC` is reported as 1.5 µM (HEK293T ATF4-FLuc reporter; ATF4 reporter gene, activator, luciferase reporter).
`O=C(O)CCc1cccc(O)c1` has a kynurenine level of 171 ± 13.2 % change (Caco-2/THP-1 co-culture; concentration not given, with: LPS 250 ng/mL).
For `CC/C(=N\NC(=O)NCc1cccc(O)c1)c1ccc(O)c(C)c1O`, the protein level was 0.18 ± 0.12 (SK-OV-3; Western blot, refers to: phospho-YAP; 10 µM, 3 h, 3D gellan gum culture, unit not given; relative to: total YAP).
With `O=C(O)CCc1ccc(O)cc1` the kynurenine level was 93.2 ± 1.2 % change (Caco-2/THP-1 co-culture; 0.25 µg/mL, with: LPS 250 ng/mL).
With `C=Cc1c2[n-]c(c1C)/C=c1\[n-]/c(c(C)c1C=C)=C\c1[n-]c(c(CCC(=O)O)c1C)/C=c1\[n-]c(c(C)c1CCC(=O)O)=C2.[Sn+4]` the fold change was 1.97 (SH-SY5Y; RNA-seq, refers to: FBLIM1 mRNA; 5 µM, 5 h; relative to: untreated cells).
The EC50 of `CCc1cnc(N2CCC(c3nc(COc4ccc(-n5cnnn5)cc4)cs3)CC2)nc1` is reported as 3.64 µM (HEK293T ATF4-FLuc reporter; ATF4 reporter gene, activator, luciferase reporter).
The inhibition of `O=S(=O)(O)CCCN1CCOCC1` is reported as -8.57% (THP-1; pyroptotic LDH release; 2 µM, 40 min, with: LPS then nigericin).
`COc1cc(O)c2c(=O)c(O)c(-c3ccc(O)c(O)c3)oc2c1` gave a kynurenine level of 101 ± 2.8 % change (Caco-2/THP-1 co-culture; concentration not given, with: LPS 250 ng/mL).
`c1coc(CNc2ncnc3[nH]cnc23)c1` has an inhibition of -12.6% (THP-1; pyroptotic LDH release; 2 µM, 40 min, with: LPS then nigericin).
For `O=C(Nc1nnc2[nH]c(=S)[nH]c(-c3ccc(Cl)cc3)c1-2)c1ccccc1`, the cell growth was 92.8% (SF-268; SRB; 10 µM, NCI60 single-dose screen; relative to: untreated).
`Nc1cccc2c1C(=O)N(C1CCC(=O)NC1=O)C2=O` (centres unmarked) gave a viability of 16% and 14% (MM1.S; XTT; 2.5 µM).
For `CC(C)C[C@H](NC(=O)C[C@H](O)[C@H](CC(C)C)NC(=O)[C@H](Cc1c[nH]cn1)NC(=O)CNC(=O)[C@@H](NC(=O)[C@H](C)NC(=O)[C@H](Cc1c[nH]c2ccccc12)NC(=O)[C@H](CCC(N)=O)NC(=O)[C@@H](Cc1ccccc1)NC(=O)COCCOCCNC(=O)CCC(C(=O)O)N1CCN(CC(=O)O)CCN(CC(=O)O)CCN(CC(=O)O)CC1)C(C)C)C(N)=O` (some centres unmarked) [lutetium-177 labelled], the tissue uptake was 4.9 ± 0.6 %ID/g (BALB/c nu/nu mice, kidneys; intravenous, 500 pmol, 1 h, with: PA 300 µg).
With `CCCCCC(O)c1ccc(N2C(=O)CC[C@@H]2COCc2ccc(C(=O)OC(C)C)s2)cc1` (some centres unmarked) the EC50 was 4.29 µM (HEK293T ATF4-FLuc reporter; ATF4 reporter gene, activator, luciferase reporter).
For `CCn1cc(-c2cc(Cn3ccnc3)cc3c2CCN([C@H](c2cc(OC)ccn2)C2CC2)C3=O)c(C(F)(F)F)n1`, the EC50 was 23.3 µM (NCI-H747; cell growth, inhibitor; 120 h).
For `CCn1nc(-c2ccccc2)cc(Nc2cccc3ncccc23)c1=O`, the EC50 was 5.81 µM (HEK293T ATF4-FLuc reporter; ATF4 reporter gene, activator, luciferase reporter).
`Cc1ccc(CNC(=O)Cn2cc(CSc3nc4ccccc4[nH]3)nn2)cc1` has a cytotoxicity of 91.7% (MDA-MB-231; MTT; 125 ppm).
`COc1cc(/C=C/C(=O)N2CCC=CC2=O)cc(OC)c1OC` has a mRNA level of 173 ± 8.9% (MDA-MB-468; quantitative RT-PCR, refers to: FAS; 30 µM, 8 h; relative to: untreated cells).
For `COc1ccc(OC)c(-c2nc3ccc(-c4nc5ccc(N6CCN(C)CC6)cc5[nH]4)cc3[nH]2)c1`, the growth percent was 97.6% (SF-268; SRB; 10 µM, 48 h).
`O=C(OCc1ccccc1)c1ccccc1` has an inhibition of 33.4% (THP-1; pyroptotic LDH release; 2 µM, 40 min, with: LPS then nigericin).
`COc1cnc2cccc(N3CCc4c(cc(Cn5ccnc5C)cc4-c4cn(C)nc4C(F)(F)F)C3=O)c2c1` has an EC50 of > 30 µM (COV434; cell growth, inhibitor; 120 h).
The inhibition of `Nc1cccc(N)n1` is reported as 16.6% (THP-1; pyroptotic LDH release; 2 µM, 40 min, with: LPS then nigericin).
With `CC(C)NCC(O)c1ccc(O)c(O)c1` (centres unmarked) the sarcomere length was 1.7 µm (mouse ventricular cardiomyocytes; dose not given, 0.435 s).
Under “number of downregulated genes”, `Cn1cc(Nc2nccc(-c3ccc4c(c3)CN(C3COC3)CC[C@H]4NC(=O)c3cn(C(C)(C)C)nn3)n2)cn1` is recorded as 159 (human B cells; 100 nM, 64 h, non-stimulation-regulated genes, with: CD40L, anti-IgM, IL-21).
For `O=C(/C=C/C=C/C=C/C1CCCCC1)NC1=C[C@@](O)(/C=C/C=C/C=C/C(=O)NC2=C(O)CCC2=O)[C@@H]2O[C@@H]2C1=O`, the GI50 was 9.95 µM (snu719; cell growth, inhibitor, CellTiter-Glo luminescence; 78 h; relative to: day 0 cell count).
For `C[N+](C)(C)NCCC(=O)[O-]`, the inhibition was 13.3% (THP-1; pyroptotic LDH release; 2 µM, 40 min, with: LPS then nigericin).
`Cn1cc(-c2ccc(-c3cncc(Cl)c3N3CCC4(CCNC4=O)CC3)cc2)cn1`: “log2 fold change” 3.71 (COLO 205; gene expression, microarray, refers to: BTG2 mRNA; concentration not given, 6 h; relative to: untreated cells).
